{"data": "Assay results from different studies", "target": "5-hydroxytryptamine receptor 1B (HTR1B, Homo sapiens, UniProt P28222)"}
{"SMILES": "Cc1cc(-c2ccc3ccccc3c2)nnc1NCCN1CCN(C)CC1", "test": "antagonist", "conditions": "10000 nM", "scale": "reference: control", "endpoint": "activity", "result": "12%"}
{"SMILES": "C/C(=N\\OCCCN1CCCCC1)c1ccc(C(F)(F)F)cc1", "test": "agonist, cAMP", "conditions": "10 µM", "endpoint": "activation", "result": "4.3%"}
{"SMILES": "C[C@H](NCc1ccc(-c2ccc(C(F)(F)F)cc2)cc1)C(N)=O", "test": "radioligand binding, SafetyScreen panel", "conditions": "1 µM, species human, with: 1.0 nM [3H]GR125743", "endpoint": "inhibition", "result": "-3%"}
{"SMILES": "CCN(CC)CCOc1ccc(-c2nnn(Cc3ccc(OC)cc3)c2N)cc1", "test": "radioligand binding", "test system": "Chem-1", "conditions": "10 µM, with: 10000 nM radioligand", "endpoint": "inhibition", "result": "4.58%"}
{"SMILES": "CCc1nnc(-c2c(OC)cc(-c3cnc4cc(-c5cnn(C)c5)ccn34)cc2OC)o1", "test": "antagonist radioligand, radioligand binding", "conditions": "10 µM, SafetyScreen44 5-HT1B", "endpoint": "inhibition", "result": "-23%"}
{"SMILES": "COc1ccccc1N1CCN(CCCCN2CCCc3ccccc3C2=O)CC1", "test": "radioligand binding", "conditions": "concentration not given, with: [3H]5-CT", "endpoint": "inhibition", "result": "86.1%"}
{"SMILES": "N[C@H](C(=O)N1CCCC1)C1CCN(c2nccc3c(-c4ncc(Cl)cc4Cl)cccc23)CC1", "test": "functional response, agonist", "conditions": "10 µM", "endpoint": "response", "result": "0%"}
{"SMILES": "Cc1cc(Nc2nc(C[C@@]3(C(=O)O)CCN(Cc4cccc(Cl)c4F)[C@H](C)C3)cc(C)c2F)[nH]n1", "test": "inhibitor", "conditions": "10 µM", "endpoint": "inhibition", "result": "0.81%"}
{"SMILES": "O=C1c2ccccc2CCCN1CCCCN1CCN(c2cccc(Cl)c2Cl)CC1", "test": "radioligand binding", "conditions": "concentration not given, with: [3H]5-CT", "endpoint": "inhibition", "result": "96%"}
{"note": "Repeated from above:"}
{"SMILES": "CCc1nnc(-c2c(OC)cc(-c3cnc4cc(-c5cnn(C)c5)ccn34)cc2OC)o1", "test": "antagonist radioligand, radioligand binding", "conditions": "10 µM, SafetyScreen44 5-HT1B", "endpoint": "inhibition", "result": "-23%"}
